Experimental data pooled from the literature.
Protocols differ between the studies behind these lines. Numbers after ± are the reported error.

O=C(O)c1cc(-c2ccc(F)cc2F)ccc1O — EC20 (mitochondrial swelling; BALB/cByJ female mouse liver mitochondria; 30 min, added: succinate + rotenone; baseline: CaCl2 maximal swelling): > 200 µM
CCCC[C@@H]1NC(=O)[C@@H](NC(=O)[C@H](CCC(=O)O)NC(=O)CNC(=O)CN2CCN(CC(=O)O)CCN(CC(=O)O)CCN(CC(=O)O)CC2)CCCCNC(=O)C[C@@H](C(N)=O)NC(=O)[C@H](C(C)C)NC(=O)[C@@H]2CCCN2C(=O)[C@H](CCCNC(=N)N)NC(=O)CNC(=O)[C@H](Cc2c[nH]c3ccccc23)NC(=O)[C@H](CCCNC(=N)N)NC(=O)[C@@H](Cc2ccccc2)NC(=O)[C@H](Cc2c[nH]cn2)NC(=O)[C@H](CCC(=O)O)NC1=O [indium-111 labelled] — tissue uptake (normal C57 mice, kidneys; intravenous, 0.037 MBq, 4 h): 14.9 ± 1.5 %ID/g
COc1c(O)cc2oc3cc(O)cc(O)c3c(=O)c2c1C/C=C(\C)CCC=C(C)C — absorption rate constant (mouse, plasma; oral, 700 mg/kg, virgin coconut oil suspension): 1.07 ± 0.87 h⁻¹
C#C[C@]1(CO)O[C@@H](n2cnc3c(N)nc(F)nc32)C[C@@H]1O — AUC(0-t) (human, plasma; oral, 30 mg, single dose, fed): 3.91 µM·h
CC(C)[C@H](NC(=O)[C@@H]1CCCN1C(=O)[C@H](CCCNC(=N)N)NC(=O)[C@H](CS)NC(=O)[C@H](Cc1c[nH]c2ccccc12)NC(=O)[C@H](CCCNC(=N)N)NC(=O)[C@@H](Cc1ccccc1)NC(=O)[C@H](Cc1c[nH]cn1)NC(=O)[C@H](CCC(=O)O)NC(=O)[C@H](CS)NC(=O)[C@H](CS)NC(=O)[C@H](CCCCN)NC(=O)[C@@H]1CC(=O)N[C@@H](CCCNC(=N)N)C(=O)N[C@@H]([C@@H](C)O)C(=O)N[C@@H](CC(=O)O)C(=O)N[C@H](Cc2ccc(O)cc2)C(=O)N1)C(N)=O [technetium-99m labelled] — tissue uptake (female C57 mouse, B16/F1 melanoma, kidneys; intravenous, dose not given, 2 h, added: NDP-MSH 10 µg co-injected): 96.2 ± 28.1 %ID/g
CC(C)Cc1ccc(C(C)C(=O)O)cc1 (stereo not drawn) — EC20 (cytochrome c release, ELISA; BALB/cByJ female mouse liver mitochondria; 30 min; baseline: alamethicin maximal release): > 200 µM
O=C(C1CC1)n1nc(C(F)(F)F)c2cnccc21 — half-life (chemical stability; aqueous buffer; pH 7.4): > 4 h
Cc1cccc(-c2nc(Nc3ccncc3)c3ccn(C)c3n2)n1 — t1/2 (mouse, CD1, plasma; oral, 10 mg/kg): ~2 h
Cn1c(-c2ccc(C(N)=O)cc2F)nnc1C(C)(C)Oc1c(F)cc(Cl)cc1F — mean Cmax (young non-Japanese humans, plasma; oral, 2 mg once daily, last day of 14 days): 21.2 ng/mL
CCCCCCCCCCCCNC — in vivo intrinsic clearance (liver S9 substrate depletion; rainbow trout liver S9; six-surfactant mixture): 42 mL/h/g liver
O=C(O)c1ccccc1Nc1cccc(C(F)(F)F)c1 — EC20 (cytochrome c release, ELISA; BALB/cByJ female mouse liver mitochondria; 30 min; baseline: alamethicin maximal release): > 200 µM
CC(C)CCCCC(=O)N[C@@H](CCN)C(=O)N[C@H](C(=O)N[C@@H](CCN)C(=O)N[C@H]1CCNC(=O)[C@H]([C@@H](C)O)NC(=O)[C@H](CCN)NC(=O)[C@H](CCN)NC(=O)[C@H](CC(C)C)NC(=O)[C@@H](Cc2ccccc2)NC(=O)[C@H](CCN)NC1=O)[C@@H](C)O — free Cmax (equilibrium dialysis LC-MS/MS; human patients, plasma; dose not given, median): 150 ng/mL
N[C@@H](CC(=O)O)Cn1nnc(-c2ccc(Oc3ncc(Cl)cc3F)cc2)n1 — concentration (human, blood; 20 mg single dose, 24 h): ~33 ng/mL
Nc1cc(F)ccc1NC(=O)c1ccc(CNC(=O)/C=C/c2cccnc2)cc1 — AUC(0-tau) (Japanese patients, plasma; oral, 30 mg twice weekly, cycle 1 day 25): 4870 ng·h/mL
Cc1cc(C(=O)NC(C)(C)COc2cccc3c2C(N)=NS(=O)(=O)N3)cc(C)n1 — bioavailability (female Sprague-Dawley rat, plasma; oral, 10 mg/kg, single dose): 0.43%

A few entries again:
O=C(C1CC1)n1nc(C(F)(F)F)c2cnccc21 — half-life (chemical stability; aqueous buffer; pH 7.4): > 4 h
